Results of several laboratories.
Each line is one published result; not all experiments were run side by side. ± gives the spread as reported.
Technique: steady-state kinetics
B1: putA D779W (Bradyrhizobium diazoefficiens, UniProt Q89E26); chain MPNIPPPFTAPYAPDDAEIAARLLPASHLSPPQEARIHRTATRLIEAIRKRDDRLGGVEDMLREFALSTKEGLALMVLAEALLRVPDARTADQFIEDKLGEGDFIHHETKSTAFLVNASAWALGLSARVIQPGETPDGTIGRLVKRLGAPAVRTATRQAMRLMGNHFVLGETIEQALERGKPRSGQKTRYSFDMLGEGARTAADARRYFDAYASAIETIGKAAGNHALPDRPGISVKLSALHPRFEAISRARVMVELVPQLLDLAQRAKAHDLNFTVDAEEADRLELSLDVIAATLADPSLKGWDGFGLAIQAYQKRASAVIDYVDALARAHDRKLMVRLVKGAYWDTEIKRAQERGLDGYPVFTRKAMTDLNYVACASKLLALRPRIFPQFATHNALTVATVLEMAEGSSGFEFQRLHGMGEALYEQLAKDHADIAYRTYAPVGSHRDLLAYLVRRLLENGANSSFVAQAADYRVPVPALLQRPADAIVRPQAAAHPRIPLPCDLFAPERRNSRGVEFGARTALDQLLTDVKAETGDLKPIADATPDQAHAAVAAARAGFAGWSRTPAGIRAAALEQAAHLLESRSAHFIALLQREGGKTLDDALSELREAADFCRYYAAQGRKLFGSETAMPGPTGESNALTMRGRGVFVAISPWNFPLAIFLGQVTAALMAGNSVVAKPAEQTPRIAREAVALLHEAGIPKSALYLVTGDGRIGAALTAHPDIAGVVFTGSTEVARSINRALAAKDGPIVPLIAETGGINAMIADATALPEQVADWVVTSAFRSAGQRCSALRLLFVQEDVADRMIEMVAGAARELKIGDPSDVATHVGPVIDVEAKQRLDAHIARMKTEARLHFAGPAPEGCFVAPHIFELTEAGQLTEEVFGPILHVVRYRPENLERVLRAIERTGYGLTLGVHSRIDDSIEAIIDRVQVGNIYVNRNMIGAVVGVQPFGGNGLSGTGPKAGGPHYLARFATEQTVTINTAAAGGNAALLAGEE
B2: enzyme (Irpex lacteus, UniProt A0A510I1H7); chain QSQVWGQCGGIGWTGATTCVAGSVCTKSNDYYSQCIPGAAAPSSAPPASTPVSVPPSQPSGSSGGLANIPASKLTQFSNFGTNPNNVQMFVYKPKNVAANPPLIVASHYCSGTAQAYFTGSKFAQLAETYGYVVIFPSSPHSGTCWDVSSDETLMHDGGSDSLSIANAARFAISNWGVDPNRVFAVGTSSGAMMTSVLAGAYPDIFKAGIVDSGVAFGCFAVPGQPEDSWNSQCSEGQLVLTGQQWAQKVKNAFPGFTGTYPKMQVWHGTADTTLYPQNFFEEVKQWTTIFNYPSTPLSNVTQTNLGSNYHNATFGPNFQAILATGVGHTVPLFEQQYLQFLGIA
B3: Tcur_2987 W263F/W376F (Thermomonospora curvata, UniProt D1A807); chain ACSEERAAGARPSATQTTGTATEPFHGPHQAGIATPPQAHAVFLGLDLRKGTGRKELGRLMRLLTDDARRLTQGRPALADPEPDLAPLPSRLTFTFGFGPGLFKAAGLEKQRPEGLRPLPPFKVDRLEDRWSGGDLLVQICCDDPITLAHALRMTVKDARAFTRVRWVQRGFRRSPGVQSSGATQRNLMGQLDGTVNPVPGTADFDQAVWVQDGPEWLRGGTTLVLRRIRMELEKFDEADPAGKEFAVGRRLTSGAPLTGRHEHDEPDFDAVDSAGFPVIAENAHIRLAHVDSPRLRMLRRPYNYDEGLTADGRSDAGLLFAAYQADIDRQFIPVQRRLDEGGDLLNLFTTPIGSAVFAIPPGCDENGWIGQGLLG
B4: SACOL1063 (Staphylococcus aureus, UniProt Q5HH30); chain MFSKVNNQKMLEDCFYIRKKVFVEEQGVPEESEIDEYESESIHLIGYDNGQPVATARIRPINETTVKIERVAVMKSHRGQGMGRMLMQAVESLAKDEGFYVATMNAQCHAIPFYESLNFKMRGNIFLEEGIEHIEMTKKLTSLN
B5: mtnK (Bacillus subtilis, UniProt O31663); chain MGVTKTPLYETLNESSAVALAVKLGLFPSKSTLTCQEIGDGNLNYVFHIYDQEHDRALIIKQAVPYAKVVGESWPLTIDRARIESSALIRQGEHVPHLVPRVFYSDTEMAVTVMEDLSHLKIARKGLIEGENYPHLSQHIGEFLGKTLFYSSDYALEPKVKKQLVKQFTNPELCDITERLVFTDPFFDHDTNDFEEELRPFVEKLWNNDSVKIEAAKLKKSFLTSAETLIHGDLHTGSIFASEHETKVIDPEFAFYGPIGFDVGQFIANLFLNALSRDGADREPLYEHVNQVWETFEETFSEAWQKDSLDVYANIDGYLTDTLSHIFEEAIGFAGCELIRRTIGLAHVADLDTIVPFDKRIGRKRLALETGTAFIEKRSEFKTITDVIELFKLLVKE
B6: Mgst1 unactivated (Rattus norvegicus, UniProt P08011); chain ADLKQLMDNEVLMAFTSYATIILAKMMFLSSATAFQRLTNKVFANPEDCAGFGKGENAKKFLRTDEKVERVRRAHLNDLENIVPFLGIGLLYSLSGPDLSTALIHFRIFVGARIYHTIAYLTPLPQPNRGLAFFVGYGVTLSMAYRLLRSRLYL
B7: cyc1 F96Y (Streptomyces coelicolor, UniProt Q9K499); chain MHAFPHGTTATPTAIAVPPSLRLPVIEAAFPRQLHPYWPKLQETTRTWLLEKRLMPADKVEEYADGLCYTDLMAGYYLGAPDEVLQAIADYSAWFYVWDDRHDRDIVHGRAGAWRRLRGLLHTALDSPGDHLHHEDTLVAGFADSVRRLYAFLPATWNARFARHFHTVIEAYDREFHNRTRGIVPGVEEYLELRRLTFAHWIWTDLLEPSSGCELPDAVRKHPAYRRAALLSQEFAAWYNDLCSLPKEIAGDEVHNLGISLITHHSLTLEEAIGEVRRRVEECITEFLAVERDALRFADELADGTVRGKELSGAVRANVGNMRNWFSSVYWFHHESGRYMVDSWDDRSTPPYVNNEAAGEK
B8: 3-hydroxypropionyl-CoA dehydratase (Metallosphaera sedula, UniProt A4YI89); chain MEFETIETKKEGNLFWITLNRPDKLNALNAKLLEELDRAVSQAESDPEIRVIIITGKGKAFCAGADITQFNQLTPAEAWKFSKKGREIMDKIEALSKPTIAMINGYALGGGLELALACDIRIAAEEAQLGLPEINLGIYPGYGGTQRLTRVIGKGRALEMMMTGDRIPGKDAEKYGLVNRVVPLANLEQETRKLAEKIAKKSPISLALIKEVVNRGLDSPLLSGLALESVGWGVVFSTEDKKEGVSAFLEKREPTFKGK
B9: FDC1 (Saccharomyces cerevisiae, UniProt Q03034); chain MRKLNPALEFRDFIQVLKDEDDLIEITEEIDPNLEVGAIMRKAYESHLPAPLFKNLKGASKDLFSILGCPAGLRSKEKGDHGRIAHHLGLDPKTTIKEIIDYLLECKEKEPLPPITVPVSSAPCKTHILSEEKIHLQSLPTPYLHVSDGGKYLQTYGMWILQTPDKKWTNWSIARGMVVDDKHITGLVIKPQHIRQIADSWAAIGKANEIPFALCFGVPPAAILVSSMPIPEGVSESDYVGAILGESVPVVKCETNDLMVPATSEMVFEGTLSLTDTHLEGPFGEMHGYVFKSQGHPCPLYTVKAMSYRDNAILPVSNPGLCTDETHTLIGSLVATEAKELAIESGLPILDAFMPYEAQALWLILKVDLKGLQALKTTPEEFCKKVGDIYFRTKVGFIVHEIILVADDIDIFNFKEVIWAYVTRHTPVADQMAFDDVTSFPLAPFVSQSSRSKTMKGGKCVTNCIFRQQYERSFDYITCNFEKGYPKGLVDKVNENWKRYGYK
B10: ABHD14B (Homo sapiens, UniProt Q96IU4); chain MAASVEQREGTIQVQGQALFFREALPGSGQARFSVLLLHGIRFSSETWQNLGTLHRLAQAGYRAVAIDLPGLGHSKEAAAPAPIGELAPGSFLAAVVDALELGPPVVISPSLSGMYSLPFLTAPGSQLPGFVPVAPICTDKINAANYASVKTPALIVYGDQDPMGQTSFEHLKQLPNHRVLIMKGAGHPCYLDKPEEWHTGLLDFLQGLQ
Sequence of UniProt Q04049 (whole entry, looked up): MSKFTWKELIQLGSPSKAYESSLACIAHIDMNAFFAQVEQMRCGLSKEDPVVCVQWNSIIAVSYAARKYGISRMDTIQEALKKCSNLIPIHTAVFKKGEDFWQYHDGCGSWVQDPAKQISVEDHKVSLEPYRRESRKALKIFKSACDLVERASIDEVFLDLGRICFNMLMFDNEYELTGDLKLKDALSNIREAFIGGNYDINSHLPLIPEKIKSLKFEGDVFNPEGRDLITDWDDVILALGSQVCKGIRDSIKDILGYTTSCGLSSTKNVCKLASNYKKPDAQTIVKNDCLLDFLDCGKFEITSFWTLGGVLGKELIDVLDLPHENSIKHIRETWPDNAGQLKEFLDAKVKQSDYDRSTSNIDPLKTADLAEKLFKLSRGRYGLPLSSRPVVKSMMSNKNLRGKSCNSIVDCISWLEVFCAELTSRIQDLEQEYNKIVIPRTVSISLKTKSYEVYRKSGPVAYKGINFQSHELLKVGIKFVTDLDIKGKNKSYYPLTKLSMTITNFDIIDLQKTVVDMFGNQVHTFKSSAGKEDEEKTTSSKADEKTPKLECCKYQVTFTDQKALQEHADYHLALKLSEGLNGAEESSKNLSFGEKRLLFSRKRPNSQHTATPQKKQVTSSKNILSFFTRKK
Sequence of UniProt P07914 (whole entry, looked up): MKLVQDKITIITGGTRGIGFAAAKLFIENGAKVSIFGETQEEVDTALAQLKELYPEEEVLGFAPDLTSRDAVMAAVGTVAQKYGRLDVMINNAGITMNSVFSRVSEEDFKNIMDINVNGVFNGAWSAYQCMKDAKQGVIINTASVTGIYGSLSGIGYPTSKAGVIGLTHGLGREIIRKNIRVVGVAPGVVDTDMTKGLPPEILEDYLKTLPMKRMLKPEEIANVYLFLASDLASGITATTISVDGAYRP
Sequence of UniProt Q6PHW0 (whole entry, looked up): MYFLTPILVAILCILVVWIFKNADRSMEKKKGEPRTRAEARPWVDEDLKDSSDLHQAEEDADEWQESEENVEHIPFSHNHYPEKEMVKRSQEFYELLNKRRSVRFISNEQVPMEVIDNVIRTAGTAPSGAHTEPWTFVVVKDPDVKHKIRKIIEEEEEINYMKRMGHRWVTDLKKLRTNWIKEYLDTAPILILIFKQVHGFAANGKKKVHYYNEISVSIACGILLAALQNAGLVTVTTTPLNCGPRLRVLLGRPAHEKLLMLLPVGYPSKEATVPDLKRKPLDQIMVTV
Sequence of UniProt P49419 (whole entry, looked up): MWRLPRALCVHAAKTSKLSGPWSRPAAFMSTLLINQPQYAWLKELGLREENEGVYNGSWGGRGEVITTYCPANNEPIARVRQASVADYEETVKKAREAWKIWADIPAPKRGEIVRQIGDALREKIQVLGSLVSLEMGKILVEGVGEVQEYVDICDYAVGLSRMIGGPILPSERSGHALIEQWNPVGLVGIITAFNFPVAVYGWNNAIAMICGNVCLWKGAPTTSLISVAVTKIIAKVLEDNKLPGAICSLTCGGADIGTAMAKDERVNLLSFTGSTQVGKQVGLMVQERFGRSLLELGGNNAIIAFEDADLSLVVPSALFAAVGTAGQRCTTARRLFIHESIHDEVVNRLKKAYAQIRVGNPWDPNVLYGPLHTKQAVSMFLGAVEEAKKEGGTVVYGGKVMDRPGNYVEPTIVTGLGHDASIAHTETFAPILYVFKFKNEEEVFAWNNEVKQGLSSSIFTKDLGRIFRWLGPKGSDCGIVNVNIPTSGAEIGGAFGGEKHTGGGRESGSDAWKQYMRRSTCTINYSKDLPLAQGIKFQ
Sequence of UniProt P69848 (whole entry, looked up): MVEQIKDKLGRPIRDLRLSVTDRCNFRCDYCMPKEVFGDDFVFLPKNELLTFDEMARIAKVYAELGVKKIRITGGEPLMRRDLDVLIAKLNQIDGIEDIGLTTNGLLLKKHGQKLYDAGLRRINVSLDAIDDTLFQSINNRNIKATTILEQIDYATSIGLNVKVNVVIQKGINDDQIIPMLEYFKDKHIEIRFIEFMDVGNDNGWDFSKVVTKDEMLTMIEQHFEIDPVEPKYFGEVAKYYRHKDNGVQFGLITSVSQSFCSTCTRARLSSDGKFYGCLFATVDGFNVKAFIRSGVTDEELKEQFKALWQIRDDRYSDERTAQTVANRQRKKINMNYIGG

| Substance | substrate | pH | temperature | notes | added | kcat/Km [M⁻¹ s⁻¹] |
| --- | --- | --- | --- | --- | --- | --- |
| B1 (putA D779W) | O=C(O)[C@@H]1CCC=N1 | pH 7.5 | 23 °C | – | – | 8.6 ± 4 |
| B2 (enzyme) | CC(=O)Oc1ccc([N+](=O)[O-])cc1 | pH 6 | 30 °C | – | – | 20600 |
| B3 (Tcur_2987 W263F/W376F) | Nc1c(S(=O)(=O)O)cc(Nc2cccc(S(=O)(=O)CCOS(=O)(=O)O)c2)c2c1C(=O)c1ccccc1C2=O | pH 3 | – | sigmoidal kinetics | H2O2 1 mM | 2.7e+06 |
| B4 (SACOL1063) | C[C@@H](O)[C@H](N)C(=O)O | pH 8 | 37 °C | Hill coefficient | AcCoA 1 mM, L-Thr 0-10 mM | 890 |
| B5 (mtnK) | Nc1ncnc2c1ncn2[C@@H]1O[C@H](COP(=O)(O)OP(=O)(O)OP(=O)(O)O)[C@@H](O)[C@H]1O | pH 7.8 | 30 °C | – | 5-methylthioribose | 21000 |
| B6 (Mgst1 unactivated) | NC(=O)c1ccc(Cl)c([N+](=O)[O-])c1 | pH 6.5 | 5 °C | potassium phosphate 0.1 M, unactivated enzyme | GSH 5 mM | 290 ± 70 |
| B7 (cyc1 F96Y) | CC(C)=CCC/C(C)=C/CC/C(C)=C/CO[P@@](=O)(O)OP(=O)(O)O | pH 6.5 | 30 °C | – | MgCl2 10 mM | 107 ± 2 |
| B8 | CC(C)(COP(=O)(O)OP(=O)(O)OC[C@H]1O[C@@H](n2cnc3c(N)ncnc32)[C@H](O)[C@@H]1OP(=O)(O)O)[C@@H](O)C(=O)NCCC(=O)NCCSC(=O)CCO | pH 6.5 | 65 °C | substrate made in situ | ATP, CoA, NADPH | 5.12e+06 |
| B9 (FDC1) | COc1cc(/C=C/C(=O)O)ccc1O | pH 7 | 25 °C | apparent kcat, incomplete cofactor occupancy, apparent | – | 21000 ± 4500 |
| ALDH7A1 (Homo sapiens, UniProt P49419) | N[C@@H](CCCC=O)C(=O)O | pH 8 | 20 °C | – | NAD+ 2.5 mM | 3600 ± 4800 |
| B10 (ABHD14B) | CC(=O)Oc1ccc([N+](=O)[O-])cc1 | pH 8 | 37 °C | – | – | 20.4 ± 2.5 |
| moaA (Staphylococcus aureus, UniProt P69848) | C[S+](CC[C@H](N)C(=O)O)C[C@H]1O[C@@H](n2cnc3c(N)ncnc32)[C@H](O)[C@@H]1O | pH 7.6 | 25 °C | – | GTP, dithionite, MgCl2 1 mM | 183 ± 50 |
| BaiA1 (Clostridium scindens, UniProt P07914) | C[C@H](CCC(=O)SCCNC(=O)CCNC(=O)[C@H](O)C(C)(C)COP(=O)(O)OP(=O)(O)OC[C@H]1O[C@@H](n2cnc3c(N)ncnc32)[C@H](O)[C@@H]1OP(=O)(O)O)[C@H]1CC[C@H]2[C@@H]3[C@H](O)C[C@@H]4C[C@H](O)CC[C@]4(C)[C@H]3C[C@H](O)[C@]12C | pH 8.7 | 37 °C | – | NAD+ | 11600 |
| RAD30 (Saccharomyces cerevisiae, UniProt Q04049) | Nc1nc2c(ncn2[C@H]2C[C@H](O)[C@@H](COP(=O)(O)OP(=O)(O)OP(=O)(O)O)O2)c(=O)[nH]1 | pH 7.5 | – | apparent Km, opposite dT, undamaged template, apparent | MgCl2 10 mM | 23.3 |
| IYD (Homo sapiens, UniProt Q6PHW0) | N[C@@H](Cc1cc(F)c(O)c(I)c1)C(=O)O | pH 7.4 | 25 °C | – | sodium dithionite 0.5% | 1700 ± 400 |
| butyrylcholinesterase (Sus scrofa, UniProt A0A4X1VEU5) | CC(=O)SCC[N+](C)(C)C | pH 8 | 22 °C | – | – | 2.58e+06 ± 150000 |
| Ptb (Listeria monocytogenes, UniProt Q8Y7B7) | CCC(=O)SCCNC(=O)CCNC(=O)[C@H](O)C(C)(C)COP(=O)(O)OP(=O)(O)OC[C@H]1O[C@@H](n2cnc3c(N)ncnc32)[C@H](O)[C@@H]1OP(=O)(O)O | pH 7.5 | 25 °C | apparent | – | 2.72e+06 |

Excerpt of the above:
| Substance | substrate | pH | temperature | notes | added | kcat/Km [M⁻¹ s⁻¹] |
| --- | --- | --- | --- | --- | --- | --- |
| RAD30 (Saccharomyces cerevisiae, UniProt Q04049) | Nc1nc2c(ncn2[C@H]2C[C@H](O)[C@@H](COP(=O)(O)OP(=O)(O)OP(=O)(O)O)O2)c(=O)[nH]1 | pH 7.5 | – | apparent Km, opposite dT, undamaged template, apparent | MgCl2 10 mM | 23.3 |
| B3 (Tcur_2987 W263F/W376F) | Nc1c(S(=O)(=O)O)cc(Nc2cccc(S(=O)(=O)CCOS(=O)(=O)O)c2)c2c1C(=O)c1ccccc1C2=O | pH 3 | – | sigmoidal kinetics | H2O2 1 mM | 2.7e+06 |
